Results pooled from the literature.
Lines come from different studies, so protocols differ. Numbers after ± are the reported error.
Method: steady-state kinetics
B1: trypsin (Saccharopolyspora erythraea, UniProt Q54137); chain IVGGEDANVQDHPFTVALVTPDGQQFCGGTLAAPNKVVTAAHCTVGSQPADINVVSGRTVMSSNEGTVSKVTNVWVHPEYQDAAKGFDVSVLTLEAPVKEAPIELAKADDAGYAPDTAATILGWGNTSEGGQQADHLQKATVPVNSDDTCKQAYGEYTPDAMVCAGVPEGGVDTCQGDSGGPMVVNNKLIGVTSWGEGCARPGKPGVYARVGAYYDVLMEQINAGAVSAR
B2: protein (Stereum hirsutum, UniProt P9WEW0); chain MTVVDSPQRFYIPNCLEYWPWPRHINPHYQEVKKASAAWAESFGAFNPKAQHAYNACDFNLLASLAYPLESEERLRTGCDLMNMFFVFDEYSDVSSPKDVIQQAAIIMDALRNPYAPRPDDEWVGGEVTRQFWKRAIKTATAGAQRRFIDAFESYTQSVVQQAKDRHHGFIRDVDSYLEMRRETIGAKPSFVVLQMDMTLPDEVLAHPVIQQLSALSTDMICLGNDICSYNVEQARGDDLHNIITIAMNQFDIDIAGAMDWVVKYHAKLERKFLYLYNNGLPSWGKELDPQVERYVCGLGNWVRASDQWGFESERYFGKKGKEIFKRRWVNLMQPERAQDIGPTLVDGTRL
B3: UGT84B1 (Arabidopsis thaliana, UniProt O22182); chain MGSSEGQETHVLMVTLPFQGHINPMLKLAKHLSLSSKNLHINLATIESARDLLSTVEKPRYPVDLVFFSDGLPKEDPKAPETLLKSLNKVGAMNLSKIIEEKRYSCIISSPFTPWVPAVAASHNISCAILWIQACGAYSVYYRYYMKTNSFPDLEDLNQTVELPALPLLEVRDLPSFMLPSGGAHFYNLMAEFADCLRYVKWVLVNSFYELESEIIESMADLKPVIPIGPLVSPFLLGDGEEETLDGKNLDFCKSDDCCMEWLDKQARSSVVYISFGSMLETLENQVETIAKALKNRGLPFLWVIRPKEKAQNVAVLQEMVKEGQGVVLEWSPQEKILSHEAISCFVTHCGWNSTMETVVAGVPVVAYPSWTDQPIDARLLVDVFGIGVRMRNDSVDGELKVEEVERCIEAVTEGPAAVDIRRRAAELKRVARLALAPGGSSTRNLDLFISDITIA
B4: enzyme (Staphylococcus aureus, UniProt P69848); chain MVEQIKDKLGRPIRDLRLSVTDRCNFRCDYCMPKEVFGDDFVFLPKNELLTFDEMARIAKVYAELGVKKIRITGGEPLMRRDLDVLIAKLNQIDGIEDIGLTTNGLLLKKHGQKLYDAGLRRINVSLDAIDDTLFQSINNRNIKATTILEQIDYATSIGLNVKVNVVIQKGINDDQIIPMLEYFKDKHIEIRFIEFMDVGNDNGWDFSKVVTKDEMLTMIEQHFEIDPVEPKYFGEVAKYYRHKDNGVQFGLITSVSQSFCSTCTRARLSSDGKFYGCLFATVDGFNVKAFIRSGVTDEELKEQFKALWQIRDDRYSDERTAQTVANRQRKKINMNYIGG
B5: GDP-perosamine synthase (Caulobacter vibrioides, UniProt Q9A9H3); chain MSDLPRISVAAPRLDGNERDYVLECMDTTWISSVGRFIVEFEKAFADYCGVKHAIACNNGTTALHLALVAMGIGPGDEVIVPSLTYIASANSVTYCGATPVLVDNDPRTFNLDAAKLEALITPRTKAIMPVHLYGQICDMDPILEVARRHNLLVIEDAAEAVGATYRGKKSGSLGDCATFSFFGNKIITTGEGGMITTNDDDLAAKMRLLRGQGMDPNRRYWFPIVGFNYRMTNIQAAIGLAQLERVDEHLAARERVVGWYEQKLARLGNRVTKPHVALTGRHVFWMYTVRLGEGLSTTRDQVIKDLDALGIESRPVFHPMHIMPPYAHLATDDLKIAEACGVDGLNLPTHAGLTEADIDRVIAALDQVLV
B6: UGT1A9 (Homo sapiens, UniProt O60656); chain GKLLVVPMDGSHWFTMRSVVEKLILRGHEVVVVMPEVSWQLGRSLNCTVKTYSTSYTLEDLDREFKAFAHAQWKAQVRSIYSLLMGSYNDIFDLFFSNCRSLFKDKKLVEYLKESSFDAVFLDPFDNCGLIVAKYFSLPSVVFARGILCHYLEEGAQCPAPLSYVPRILLGFSDAMTFKERVRNHIMHLEEHLLCHRFFKNALEIASEILQTPVTEYDLYSHTSIWLLRTDFVLDYPKPVMPNMIFIGGINCHQGKPLPMEFEAYINASGEHGIVVFSLGSMVSEIPEKKAMAIADALGKIPQTVLWRYTGTRPSNLANNTILVKWLPQNDLLGHPMTRAFITHAGSHGVYESICNGVPMVMMPLFGDQMDNAKRMETKGAGVTLNVLEMTSEDLENALKAVINDKSYKENIMRLSSLHKDRPVEPLDLAVFWVEFVMRHKGAPHLRPAAHDLTWYQYHSLDVIGFLLAVVLTVAFITFKCCAYGYRKCLGKKGRVKKAHKSKTH
B7: vioC (Streptomyces vinaceus, UniProt Q6WZB0); chain MTESPTTHHGAAPPDSVATPVRPWSEFRLTPAEAAAAAALAARCAQRYDETDGPEFLLDAPVIAHELPRRLRTFMARARLDAWPHALVVRGNPVDDAALGSTPVHWRTARTPGSRPLSFLLMLYAGLLGDVFGWATQQDGRVVTDVLPIKGGEHTLVSSSSRQELGWHTEDAFSPYRADYVGLLSLRNPDGVATTLAGVPLDDLDERTLDVLFQERFLIRPDDSHLQVNNSTAQQGRVEFEGIAQAADRPEPVAILTGHRAAPHLRVDGDFSAPAEGDEEAAAALGTLRKLIDASLYELVLDQGDVAFIDNRRAVHGRRAFQPRYDGRDRWLKRINITRDLHRSRKAWAGDSRVLGQR
B8: carbamoyl phosphate synthetase large subunit L720E (Escherichia coli, UniProt P00968); chain PKRTDIKSILILGAGPIVIGQACEFDYSGAQACKALREEGYRVILVNSNPATIMTDPEMADATYIEPIHWEVVRKIIEKERPDAVLPTMGGQTALNCALELERQGVLEEFGVTMIGATADAIDKAEDRRRFDVAMKKIGLETARSGIAHTMEEALAVAADVGFPCIIRPSFTMGGSGGGIAYNREEFEEICARGLDLSPTKELLIDESLIGWKEYEMEVVRDKNDNCIIVCSIENFDAMGIHTGDSITVAPAQTLTDKEYQIMRNASMAVLREIGVETGGSNVQFAVNPKNGRLIVIEMNPRVSRSSALASKATGFPIAKVAAKLAVGYTLDELMNDITGGRTPASFEPSIDYVVTKIPRFNFEKFAGANDRLTTQMKSVGEVMAIGRTQQESLQKALRGLEVGATGFDPKVSLDDPEALTKIRRELKDAGADRIWYIADAFRAGLSVDGVFNLTNIDRWFLVQIEELVRLEEKVAEVGITGLNADFLRQLKRKGFADARLAKLAGVREAEIRKLRDQYDLHPVYKRVDTCAAEFATDTAYMYSTYEEECEANPSTDREKIMVLGGGPNRIGQGIEFDYCCVHASLALREDGYETIMVNCNPETVSTDYDTSDRLYFEPVTLEDVLEIVRIEKPKGVIVQYGGQTPLKLARALEAAGVPVIGTSPDAIDRAEDRERFQHAVERLKLKQPANATVTAIEMAVEKAKEIGYPLVVRPSYVEGGRAMEIVYDEADLRRYFQTAVSVSNDAPVLLDHFLDDAVEVDVDAICDGEMVLIGGIMEHIEQAGVHSGDSACSLPAYTLSQEIQDVMRQQVQKLAFELQVRGLMNVQFAVKNNEVYLIEVNPRAARTVPFVSKATGVPLAKVAARVMAGKSLAEQGVTKEVIPPYYSVKEVVLPFNKFPGVDPLLGPEMRSTGEVMGVGRTFAEAFAKAQLGSNSTMKKHGRALLSVREGDKERVVDLAAKLLKQGFELDATHGTAIVLGEAGINPRLVNKVHEGRPHIQDRIKNGEYTYIINTTSGRRAIEDSRVIRRSALQYKVHYDTTLNGGFATAMALNADATEKVISVQEMHAQIK
Chain of UniProt Q7L266 (whole entry, looked up): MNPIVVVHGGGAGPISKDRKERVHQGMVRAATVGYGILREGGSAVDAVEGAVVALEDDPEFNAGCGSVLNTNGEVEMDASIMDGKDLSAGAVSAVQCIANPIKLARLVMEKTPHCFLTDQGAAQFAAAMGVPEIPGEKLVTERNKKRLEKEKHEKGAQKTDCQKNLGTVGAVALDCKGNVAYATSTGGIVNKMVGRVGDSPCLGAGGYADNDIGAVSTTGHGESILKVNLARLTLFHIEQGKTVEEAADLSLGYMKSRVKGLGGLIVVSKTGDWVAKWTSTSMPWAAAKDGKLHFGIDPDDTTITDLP
Chain of UniProt Q9UBT6 (whole entry, looked up): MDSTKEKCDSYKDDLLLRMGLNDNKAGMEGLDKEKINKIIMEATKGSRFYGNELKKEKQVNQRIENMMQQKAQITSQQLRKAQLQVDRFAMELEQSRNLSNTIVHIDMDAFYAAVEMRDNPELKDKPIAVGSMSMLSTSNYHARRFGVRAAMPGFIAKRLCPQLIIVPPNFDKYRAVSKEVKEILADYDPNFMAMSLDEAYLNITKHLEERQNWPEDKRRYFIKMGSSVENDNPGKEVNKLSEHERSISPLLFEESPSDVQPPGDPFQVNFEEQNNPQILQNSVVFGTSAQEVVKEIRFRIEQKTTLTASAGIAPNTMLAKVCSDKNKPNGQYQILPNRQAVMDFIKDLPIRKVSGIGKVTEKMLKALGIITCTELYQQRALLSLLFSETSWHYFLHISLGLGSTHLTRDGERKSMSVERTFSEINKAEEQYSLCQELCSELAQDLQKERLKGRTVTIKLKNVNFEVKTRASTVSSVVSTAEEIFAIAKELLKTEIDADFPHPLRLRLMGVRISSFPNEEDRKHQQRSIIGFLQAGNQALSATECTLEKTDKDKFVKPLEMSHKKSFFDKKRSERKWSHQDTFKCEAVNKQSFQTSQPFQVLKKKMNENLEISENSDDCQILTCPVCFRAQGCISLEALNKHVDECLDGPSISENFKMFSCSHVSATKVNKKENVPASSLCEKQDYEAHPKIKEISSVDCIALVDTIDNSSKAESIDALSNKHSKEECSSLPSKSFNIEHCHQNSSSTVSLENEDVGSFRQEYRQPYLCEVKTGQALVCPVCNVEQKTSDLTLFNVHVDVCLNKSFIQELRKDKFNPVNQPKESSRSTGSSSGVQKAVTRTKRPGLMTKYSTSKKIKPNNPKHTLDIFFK
Chain of UniProt Q18B70 (whole entry, looked up): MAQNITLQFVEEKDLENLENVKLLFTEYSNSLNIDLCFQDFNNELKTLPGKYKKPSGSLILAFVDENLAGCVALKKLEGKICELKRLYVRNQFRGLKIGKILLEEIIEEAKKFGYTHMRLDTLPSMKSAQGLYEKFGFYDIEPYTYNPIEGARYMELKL
Chain of UniProt Q96IU4 (whole entry, looked up): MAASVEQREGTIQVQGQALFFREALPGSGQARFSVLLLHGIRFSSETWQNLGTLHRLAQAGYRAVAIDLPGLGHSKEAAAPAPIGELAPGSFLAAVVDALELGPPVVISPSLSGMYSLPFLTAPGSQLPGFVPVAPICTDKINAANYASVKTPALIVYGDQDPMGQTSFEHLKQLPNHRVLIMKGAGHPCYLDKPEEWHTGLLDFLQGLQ
Chain of UniProt P22303 (whole entry, looked up): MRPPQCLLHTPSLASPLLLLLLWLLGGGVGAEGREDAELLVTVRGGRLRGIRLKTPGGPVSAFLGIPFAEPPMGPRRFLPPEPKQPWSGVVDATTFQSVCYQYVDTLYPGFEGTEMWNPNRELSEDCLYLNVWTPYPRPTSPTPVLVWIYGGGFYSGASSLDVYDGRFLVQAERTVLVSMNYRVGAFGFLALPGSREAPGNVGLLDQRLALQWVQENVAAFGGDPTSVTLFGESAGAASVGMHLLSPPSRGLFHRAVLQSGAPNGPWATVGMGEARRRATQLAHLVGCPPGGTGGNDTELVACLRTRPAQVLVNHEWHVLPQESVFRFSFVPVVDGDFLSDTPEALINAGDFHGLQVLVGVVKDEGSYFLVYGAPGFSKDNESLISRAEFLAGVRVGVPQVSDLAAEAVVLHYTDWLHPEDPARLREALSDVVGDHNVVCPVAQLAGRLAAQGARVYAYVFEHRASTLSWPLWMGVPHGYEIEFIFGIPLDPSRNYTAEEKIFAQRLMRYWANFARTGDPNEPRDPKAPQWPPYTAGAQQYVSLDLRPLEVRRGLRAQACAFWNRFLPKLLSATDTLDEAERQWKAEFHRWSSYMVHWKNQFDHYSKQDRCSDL
Chain of UniProt Q51366 (whole entry, looked up): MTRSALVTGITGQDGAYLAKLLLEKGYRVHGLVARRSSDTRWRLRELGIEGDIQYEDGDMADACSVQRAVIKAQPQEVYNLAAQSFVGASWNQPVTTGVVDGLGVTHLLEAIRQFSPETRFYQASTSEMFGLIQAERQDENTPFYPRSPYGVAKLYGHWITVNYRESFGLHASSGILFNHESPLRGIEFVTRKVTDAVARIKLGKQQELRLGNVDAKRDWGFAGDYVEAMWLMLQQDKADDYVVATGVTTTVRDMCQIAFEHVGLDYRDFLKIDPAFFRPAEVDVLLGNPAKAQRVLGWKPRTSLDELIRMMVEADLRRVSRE

Molecule | substrate | pH | temperature | notes | together with | measurement | result
B1 (trypsin) | NCCCC[C@H](NC(=O)c1ccccc1)C(=O)Nc1ccc([N+](=O)[O-])cc1 | pH 8 | 25 °C |  |  | kcat | 1.04 ± 0.02 s⁻¹
B2 (protein) | CC(C)=CCC/C(C)=C/CC/C(C)=C/CO[P@@](=O)(O)OP(=O)(O)O | pH 8 |  | NaCl 200 mM | FPP 1–100 µM | kcat | 0.0044 ± 0.0008 s⁻¹
enzyme (Comamonas testosteroni, UniProt B7WQT1) | O=C(O)c1ccccc1C(=O)O | pH 8 | 25 °C | apparent |  | kcat | 2.1 ± 0.1 s⁻¹
B3 (UGT84B1) | O=C(O)Cc1c[nH]c2ccccc12 | pH 7.5 | 30 °C |  | UDP-glucose 4 mM, MgSO4 2.5 mM | kcat | 0.00167 ± 0.000167 s⁻¹
ABHD14B (Homo sapiens, UniProt Q96IU4) | CC(=O)Oc1ccc([N+](=O)[O-])cc1 | pH 8 | 37 °C |  |  | kcat | 0.0367 ± 0.0133 s⁻¹
B4 (enzyme) | Nc1nc2c(ncn2[C@@H]2O[C@H](COP(=O)(O)OP(=O)(O)OP(=O)(O)O)[C@@H](O)[C@H]2O)c(=O)[nH]1 | pH 7.6 | 25 °C |  |  | kcat | 0.0007 ± 8.33e-05 s⁻¹
pgmB T16P (Lactococcus lactis) (sequence not shown) | O=P(O)(O)OC[C@H]1O[C@@H](OP(=O)(O)O)[C@H](O)[C@@H](O)[C@@H]1O | pH 7 | 25 °C |  |  | kcat | 0.38 ± 0.01 s⁻¹
ASRGL1 (Homo sapiens, UniProt Q7L266) | C[C@H](NC(=O)C[C@H](N)C(=O)O)C(=O)O | pH 7.4 | 37 °C | NaCl 100 mM |  | kcat | 6 ± 0.2 s⁻¹
ACHE (Homo sapiens, UniProt P22303) | CC(=O)SCC[N+](C)(C)C | pH 8 | 22 °C |  |  | kcat | 7180 ± 583 s⁻¹
B5 (GDP-perosamine synthase) | C[C@H]1O[C@H](OP(=O)(O)OP(=O)(O)OC[C@H]2O[C@@H](n3cnc4c(=O)[nH]c(N)nc43)[C@H](O)[C@@H]2O)[C@@H](O)[C@@H](O)C1=O | pH 7.5 | room temperature | NaCl 110 mM, ping-pong fit | L-glutamate cosubstrate; 100 µM PLP | kcat | 2.7 ± 0.6 s⁻¹
CT1526 (Chlorobium tepidum, UniProt Q8KC98) | Nc1nc2c(ncn2[C@@H]2O[C@H](COP(=O)(O)OP(=O)(O)OP(=O)(O)O)[C@@H](O)[C@H]2O)c(=O)[nH]1 | pH 7.5 | 25 °C | NaCl 150 mM, no nanobody |  | kcat | 0.00167 ± 3.33e-05 s⁻¹
POLK (Homo sapiens, UniProt Q9UBT6) | Cc1cn([C@H]2C[C@H](O)[C@@H](COP(=O)(O)OP(=O)(O)OP(=O)(O)O)O2)c(=O)[nH]c1=O | pH 8 | 37 °C | misinsertion opposite dT | Mg2+ | kcat | 0.00183 ± 0.000167 s⁻¹
B6 (UGT1A9) | COc1cccc2oc(-c3ccccc3)c(O)c(=O)c12 | pH 7.4 | 37 °C |  |  | Km | 0.082 µM
B7 (vioC) | N=C(N)NCCC[C@H](N)C(=O)O | pH 8 | 30 °C | apparent | alpha-ketoglutarate 1.0 mM | kcat | 43.5 ± 3.27 s⁻¹
B8 | Nc1ncnc2c1ncn2[C@@H]1O[C@H](COP(=O)(O)OP(=O)(O)OP(=O)(O)O)[C@@H](O)[C@H]1O | pH 7.6 |  | KCl 100 mM | glutamine 10 mM, ornithine 10 mM | kcat | 2 ± 0.15 s⁻¹
protein (Clostridioides difficile, UniProt Q18B70) | C[C@@H](O)[C@H](N)C(=O)O | pH 8 | 37 °C |  | AcCoA 1 mM, L-Thr 0-10 mM | kcat | 8.32 s⁻¹
alanine aminopeptidase (Neisseria meningitidis, UniProt Q9JYV4) | CC[C@H](N)C(=O)Nc1ccc2c(CC(N)=O)cc(=O)oc2c1 | pH 7.5 | 37 °C |  |  | kcat | 13.8 ± 0.1 s⁻¹
enzyme (Pseudomonas aeruginosa, UniProt Q51366) | Nc1nc2c(ncn2[C@@H]2O[C@H](COP(=O)(O)OP(=O)(O)O[C@H]3O[C@H](CO)[C@@H](O)[C@H](O)[C@@H]3O)[C@@H](O)[C@H]2O)c(=O)[nH]1 |  | 37 °C |  |  | kcat | 8.82 s⁻¹

For quick reference, copied from above:
Molecule | substrate | pH | temperature | notes | together with | measurement | result
ACHE (Homo sapiens, UniProt P22303) | CC(=O)SCC[N+](C)(C)C | pH 8 | 22 °C |  |  | kcat | 7180 ± 583 s⁻¹
B5 (GDP-perosamine synthase) | C[C@H]1O[C@H](OP(=O)(O)OP(=O)(O)OC[C@H]2O[C@@H](n3cnc4c(=O)[nH]c(N)nc43)[C@H](O)[C@@H]2O)[C@@H](O)[C@@H](O)C1=O | pH 7.5 | room temperature | NaCl 110 mM, ping-pong fit | L-glutamate cosubstrate; 100 µM PLP | kcat | 2.7 ± 0.6 s⁻¹
